# Results from different studies.
# Numbered parts are unrelated; each lists some results of a single study. Several values in a cell are separate wells, animals, samples, runs or records.
# Sequence of UniProt P61075 (whole entry, looked up): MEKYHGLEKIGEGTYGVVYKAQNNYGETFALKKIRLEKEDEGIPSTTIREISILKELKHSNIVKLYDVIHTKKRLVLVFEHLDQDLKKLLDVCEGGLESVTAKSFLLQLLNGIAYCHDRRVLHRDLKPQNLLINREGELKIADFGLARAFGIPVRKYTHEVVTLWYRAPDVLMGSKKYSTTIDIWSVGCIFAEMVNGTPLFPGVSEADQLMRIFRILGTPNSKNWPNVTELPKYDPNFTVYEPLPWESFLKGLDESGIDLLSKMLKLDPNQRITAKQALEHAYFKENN
# Sequence of UniProt P14616 (whole entry, looked up): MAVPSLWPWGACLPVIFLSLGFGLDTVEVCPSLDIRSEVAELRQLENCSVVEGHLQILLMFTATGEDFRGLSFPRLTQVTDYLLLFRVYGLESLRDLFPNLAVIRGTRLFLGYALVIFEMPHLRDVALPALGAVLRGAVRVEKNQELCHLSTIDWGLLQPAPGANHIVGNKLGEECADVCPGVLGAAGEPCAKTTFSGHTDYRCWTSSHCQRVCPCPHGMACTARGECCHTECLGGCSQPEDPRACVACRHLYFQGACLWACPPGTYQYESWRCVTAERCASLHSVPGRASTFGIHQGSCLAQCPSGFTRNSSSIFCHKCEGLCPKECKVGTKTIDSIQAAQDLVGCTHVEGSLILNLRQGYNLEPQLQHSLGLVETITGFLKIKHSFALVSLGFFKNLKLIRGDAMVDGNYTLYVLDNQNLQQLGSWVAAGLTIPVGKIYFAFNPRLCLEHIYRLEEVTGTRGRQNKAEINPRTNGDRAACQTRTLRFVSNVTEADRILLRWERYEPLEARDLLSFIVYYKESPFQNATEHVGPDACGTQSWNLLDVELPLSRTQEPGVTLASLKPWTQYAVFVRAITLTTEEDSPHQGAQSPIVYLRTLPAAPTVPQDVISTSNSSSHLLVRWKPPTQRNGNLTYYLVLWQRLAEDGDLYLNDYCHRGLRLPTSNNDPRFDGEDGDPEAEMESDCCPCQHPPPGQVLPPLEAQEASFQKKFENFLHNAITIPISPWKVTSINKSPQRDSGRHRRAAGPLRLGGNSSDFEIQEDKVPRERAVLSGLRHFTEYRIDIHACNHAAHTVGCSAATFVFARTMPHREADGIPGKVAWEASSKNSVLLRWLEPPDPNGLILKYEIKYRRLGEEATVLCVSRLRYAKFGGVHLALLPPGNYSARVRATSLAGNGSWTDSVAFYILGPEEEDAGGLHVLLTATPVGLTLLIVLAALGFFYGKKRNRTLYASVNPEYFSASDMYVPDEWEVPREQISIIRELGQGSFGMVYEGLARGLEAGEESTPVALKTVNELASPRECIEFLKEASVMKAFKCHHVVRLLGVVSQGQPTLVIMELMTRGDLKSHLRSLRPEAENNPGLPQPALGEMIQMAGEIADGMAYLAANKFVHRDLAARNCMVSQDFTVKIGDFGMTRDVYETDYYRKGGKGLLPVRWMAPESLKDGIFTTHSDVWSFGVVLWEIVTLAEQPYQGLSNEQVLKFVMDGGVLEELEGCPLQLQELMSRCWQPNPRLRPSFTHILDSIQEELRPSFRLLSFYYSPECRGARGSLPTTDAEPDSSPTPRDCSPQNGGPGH
# Sequence of UniProt O94806 (whole entry, looked up): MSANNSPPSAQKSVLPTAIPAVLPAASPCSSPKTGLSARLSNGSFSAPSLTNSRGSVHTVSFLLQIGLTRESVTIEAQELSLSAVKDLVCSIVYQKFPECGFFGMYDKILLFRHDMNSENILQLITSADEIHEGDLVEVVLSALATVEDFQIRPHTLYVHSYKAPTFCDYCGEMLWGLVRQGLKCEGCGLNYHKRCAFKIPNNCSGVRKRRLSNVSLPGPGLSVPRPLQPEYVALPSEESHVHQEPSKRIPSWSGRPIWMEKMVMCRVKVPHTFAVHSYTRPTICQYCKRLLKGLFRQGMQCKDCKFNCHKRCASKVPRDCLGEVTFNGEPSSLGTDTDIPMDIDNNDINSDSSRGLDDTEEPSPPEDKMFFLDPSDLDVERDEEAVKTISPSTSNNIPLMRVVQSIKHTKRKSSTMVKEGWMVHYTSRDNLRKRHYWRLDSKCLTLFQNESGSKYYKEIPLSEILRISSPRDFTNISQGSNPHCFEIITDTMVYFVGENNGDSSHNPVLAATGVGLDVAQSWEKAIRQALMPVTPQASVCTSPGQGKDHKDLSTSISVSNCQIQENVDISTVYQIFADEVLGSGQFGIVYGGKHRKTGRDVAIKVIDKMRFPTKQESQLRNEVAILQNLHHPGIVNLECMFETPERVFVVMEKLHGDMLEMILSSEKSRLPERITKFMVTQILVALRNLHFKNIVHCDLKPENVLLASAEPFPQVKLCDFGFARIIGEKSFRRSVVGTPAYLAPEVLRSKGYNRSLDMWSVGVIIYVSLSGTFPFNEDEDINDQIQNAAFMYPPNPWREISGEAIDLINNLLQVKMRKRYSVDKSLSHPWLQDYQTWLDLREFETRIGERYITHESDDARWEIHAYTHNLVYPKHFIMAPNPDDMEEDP
# Sequence of UniProt P09619 (whole entry, looked up): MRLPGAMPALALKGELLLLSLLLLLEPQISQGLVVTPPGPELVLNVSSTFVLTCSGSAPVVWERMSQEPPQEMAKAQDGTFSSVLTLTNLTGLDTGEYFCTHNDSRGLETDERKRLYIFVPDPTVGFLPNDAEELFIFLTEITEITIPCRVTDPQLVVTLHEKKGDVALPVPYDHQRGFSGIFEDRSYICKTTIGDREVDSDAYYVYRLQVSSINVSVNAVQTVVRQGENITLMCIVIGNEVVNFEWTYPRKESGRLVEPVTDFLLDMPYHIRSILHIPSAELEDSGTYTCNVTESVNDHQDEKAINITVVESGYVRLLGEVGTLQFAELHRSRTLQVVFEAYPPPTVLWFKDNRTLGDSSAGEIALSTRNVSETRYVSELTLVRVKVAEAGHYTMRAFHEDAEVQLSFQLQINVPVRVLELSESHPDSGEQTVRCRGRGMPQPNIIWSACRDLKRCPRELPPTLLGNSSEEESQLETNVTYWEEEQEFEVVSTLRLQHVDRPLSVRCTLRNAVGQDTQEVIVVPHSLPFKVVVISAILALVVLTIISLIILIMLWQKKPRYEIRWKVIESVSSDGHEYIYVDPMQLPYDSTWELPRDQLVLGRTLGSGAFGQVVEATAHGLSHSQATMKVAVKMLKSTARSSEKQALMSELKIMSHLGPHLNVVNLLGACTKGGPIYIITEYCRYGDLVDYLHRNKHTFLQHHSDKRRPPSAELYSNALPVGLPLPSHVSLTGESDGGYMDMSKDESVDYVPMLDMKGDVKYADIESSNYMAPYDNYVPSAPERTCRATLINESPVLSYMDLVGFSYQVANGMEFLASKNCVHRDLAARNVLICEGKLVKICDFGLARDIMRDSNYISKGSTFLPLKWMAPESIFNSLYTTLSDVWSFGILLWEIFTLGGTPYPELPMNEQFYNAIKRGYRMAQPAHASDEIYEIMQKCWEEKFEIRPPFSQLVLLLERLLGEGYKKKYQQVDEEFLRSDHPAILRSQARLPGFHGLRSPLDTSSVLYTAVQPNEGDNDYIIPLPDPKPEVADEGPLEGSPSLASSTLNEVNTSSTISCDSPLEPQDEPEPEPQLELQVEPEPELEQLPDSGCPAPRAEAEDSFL
# Sequence of UniProt Q99986 (whole entry, looked up): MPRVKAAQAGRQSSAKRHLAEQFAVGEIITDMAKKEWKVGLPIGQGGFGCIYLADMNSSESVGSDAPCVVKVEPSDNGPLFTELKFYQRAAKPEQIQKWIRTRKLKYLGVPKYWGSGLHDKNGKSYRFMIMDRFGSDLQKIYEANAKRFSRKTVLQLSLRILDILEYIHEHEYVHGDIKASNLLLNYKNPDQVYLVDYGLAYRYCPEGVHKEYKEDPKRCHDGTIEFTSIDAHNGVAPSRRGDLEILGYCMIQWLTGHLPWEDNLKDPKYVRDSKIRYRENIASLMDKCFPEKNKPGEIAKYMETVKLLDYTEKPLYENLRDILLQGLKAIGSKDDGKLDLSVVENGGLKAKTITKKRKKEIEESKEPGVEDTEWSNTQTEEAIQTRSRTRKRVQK
# Sequence of UniProt P25100 (whole entry, looked up): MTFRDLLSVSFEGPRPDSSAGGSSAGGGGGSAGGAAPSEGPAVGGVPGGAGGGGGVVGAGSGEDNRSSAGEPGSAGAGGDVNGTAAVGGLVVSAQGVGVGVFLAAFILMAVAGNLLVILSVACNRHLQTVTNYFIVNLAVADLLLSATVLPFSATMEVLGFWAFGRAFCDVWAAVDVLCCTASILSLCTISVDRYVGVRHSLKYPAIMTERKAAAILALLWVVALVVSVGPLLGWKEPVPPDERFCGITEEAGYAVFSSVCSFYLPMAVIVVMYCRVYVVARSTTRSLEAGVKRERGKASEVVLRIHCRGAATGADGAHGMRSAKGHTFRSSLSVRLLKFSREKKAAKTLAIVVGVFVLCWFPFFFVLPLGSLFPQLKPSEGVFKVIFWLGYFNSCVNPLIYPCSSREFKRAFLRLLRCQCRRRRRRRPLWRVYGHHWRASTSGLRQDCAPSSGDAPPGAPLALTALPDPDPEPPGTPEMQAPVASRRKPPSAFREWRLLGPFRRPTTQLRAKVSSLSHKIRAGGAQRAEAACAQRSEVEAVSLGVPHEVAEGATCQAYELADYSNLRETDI
# Sequence of UniProt Q96BR1 (whole entry, looked up): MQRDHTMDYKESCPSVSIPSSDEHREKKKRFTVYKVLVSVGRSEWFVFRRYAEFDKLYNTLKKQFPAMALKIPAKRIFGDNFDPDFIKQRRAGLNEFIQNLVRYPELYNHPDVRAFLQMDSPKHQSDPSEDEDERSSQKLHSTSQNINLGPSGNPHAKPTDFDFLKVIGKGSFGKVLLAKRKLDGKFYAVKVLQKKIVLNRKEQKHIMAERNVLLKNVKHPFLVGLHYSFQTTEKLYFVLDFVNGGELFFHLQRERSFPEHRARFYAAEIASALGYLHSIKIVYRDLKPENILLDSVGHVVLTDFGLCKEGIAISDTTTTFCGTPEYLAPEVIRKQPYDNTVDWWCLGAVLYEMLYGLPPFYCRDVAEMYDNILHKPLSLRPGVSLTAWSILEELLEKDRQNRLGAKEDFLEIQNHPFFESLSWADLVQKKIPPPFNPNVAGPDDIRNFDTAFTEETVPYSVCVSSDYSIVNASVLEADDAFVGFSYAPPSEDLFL

# Series 1 — observed: enzyme activity; action: inhibitor; concentration: 0.5 µM; relative to: control
# SMILES: N/C(=N\[N+](=O)[O-])N/N=C\c1ccc(-c2cccc([N+](=O)[O-])c2)o1
target,remaining activity
"DYRK2 (Homo sapiens, UniProt Q92630)",93.1%
"VRK1 (Homo sapiens, UniProt Q99986)",95.1%
"SGK3 (Homo sapiens, UniProt Q96BR1)",107%
"PDGFRB (Homo sapiens, UniProt P09619)",129%
"INSRR (Homo sapiens, UniProt P14616)",99.2%
"PRKD3 (Homo sapiens, UniProt O94806)",93.9%

# Series 2
# SMILES: CO[C@@H]1[C@@H](OC(N)=O)[C@@H](O)[C@H](Oc2ccc3c(O)c(NC(=O)c4ccc(O)c(CC=C(C)C)c4)c(=O)oc3c2C)OC1(C)C
cell line,concentration,time,setting,relative to,clonogenic survival
RPE-1 wild type,100 µM,,,,51.4% and 54.4% and 43.6%
RPE-1 wild type,50 µM,,unit not given,untreated,1.17 and 0.871 and 1.15
CAPAN-1 (BRCA2-mutant),50 µM,,,,43% and 57%
RPE-1 BRCA1-/- PARPi-resistant R2,50 µM,12 to 14 days,,,22.6% and 39.7% and 27.5%
RPE-1 BRCA2-/-,150 µM,,unit not given,untreated,0.516 and 0.639 and 0.658
CAPAN-1 (BRCA2-mutant),200 µM,,,,20.8% and 16.6%

# Mixed results
SMILES,target or system,test,test system,conditions,measurement,value
C[C@H](c1ccc(F)cc1)N(Cc1cccc(C(=O)O)c1)C(=O)c1cnc2ccccc2c1,"CRK2 (Plasmodium falciparum, UniProt P61075)","cell-free assay, competition with immobilised ligand",,1 µM,remaining binding,100%
CC(C)(C)NC(=O)c1cncn1C(c1ccc(Cl)cc1)c1ccc(Cl)cc1,,,"human, microsomes or S9","2 µM, 0.5 h",remaining compound,42.5%
CNC(=O)c1cc(C(=O)NC2CC2)cn(Cc2ccccc2)c1=O,"ADRA1D (Homo sapiens, UniProt P25100)","binding, radioligand binding",,10 µM,inhibition,2.36%

# A few entries again (series 1):
target,remaining activity
"VRK1 (Homo sapiens, UniProt Q99986)",95.1%
"INSRR (Homo sapiens, UniProt P14616)",99.2%
